# Results collected from several papers.
# Lines come from different studies, so protocols differ. Several values in a cell are separate wells, animals, samples, runs or records.
# SGK3: Serine/threonine-protein kinase Sgk3 (SGK3, Homo sapiens, UniProt Q96BR1)
# TDP1: Tyrosyl-DNA phosphodiesterase 1 (TDP1, Homo sapiens, UniProt Q9NUW8)
# UniProt Q9NUW8, sequence (whole entry, looked up): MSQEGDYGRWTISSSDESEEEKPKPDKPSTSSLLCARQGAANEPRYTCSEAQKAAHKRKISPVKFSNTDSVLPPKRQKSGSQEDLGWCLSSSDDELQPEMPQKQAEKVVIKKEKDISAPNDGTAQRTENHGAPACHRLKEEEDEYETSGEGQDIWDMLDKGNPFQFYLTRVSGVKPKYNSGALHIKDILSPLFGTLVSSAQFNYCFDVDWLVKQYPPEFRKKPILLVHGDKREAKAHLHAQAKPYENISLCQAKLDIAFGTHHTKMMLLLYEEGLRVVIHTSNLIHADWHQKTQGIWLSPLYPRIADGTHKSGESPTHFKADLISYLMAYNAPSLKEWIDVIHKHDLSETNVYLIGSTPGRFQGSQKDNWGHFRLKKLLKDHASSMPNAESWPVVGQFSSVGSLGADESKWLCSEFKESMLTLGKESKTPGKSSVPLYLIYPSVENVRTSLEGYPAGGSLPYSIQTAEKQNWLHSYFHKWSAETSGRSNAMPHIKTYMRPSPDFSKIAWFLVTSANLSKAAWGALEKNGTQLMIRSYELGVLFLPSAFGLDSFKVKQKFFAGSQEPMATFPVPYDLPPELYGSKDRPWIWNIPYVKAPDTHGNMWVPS
SMILES,target,assay,system,conditions,how to read,measurement,result
Nc1ncc(-c2cc(-c3cnn(CC(F)(F)F)c3)ncc2F)nc1C(=O)NC1CNCC(F)C1 (stereo not shown),SGK3,enzyme activity,,1 µM,reference: DMSO control,remaining activity,91.7%
Cc1nc2c(F)cc(-c3nc(Nc4ccc(CNC(=O)CCCCCCC(=O)NO)cc4)ncc3F)cc2n1C(C)C,SGK3,"enzyme activity, inhibitor",,1 µM,,inhibition,26%
CC(C)=CC1OC(C)(C)C2C=C3C(=O)C(Cl)=CC(O)C3C3C(O)C4OC4C(=O)C132 (stereo not shown),SGK3,"cell-free assay, competition with immobilised ligand",,10 µM,,remaining binding,59%
Cc1ccc(-c2c(/C=C(\C#N)C(=O)NC(C)C)n(CCCO)c3ncnc(N)c23)cc1,SGK3,"cell-free assay, competition with immobilised ligand",,1 µM,,remaining binding,66%
CCCCCC=NOCc1ccc(-c2nc3cc(-c4ccccc4)ccn3c2Nc2ccc(C(=O)O)cc2)cc1 (mixture of isomers),TDP1,"enzyme activity, inhibitor",,"100 µM, unpurified compound",,inhibition,26%
Cc1ccc(C(=O)Nc2ccc(CN3CCN(C)CC3)c(C(F)(F)F)c2)cc1C#Cc1cnc2cccnn12,SGK3,"target engagement, NanoBRET",human cells,,,Hill slope,1
COCC12C(=O)NC3C4(C(OC)CC1O)C1CC5(O)C(OC)C(O)C(OC(C)=O)(C1C5OC(=O)c1ccccc1)C3(O)C(OC)C24 (stereo not shown),SGK3,"kinase activity, inhibitor, ProQinase kinase profiling",,25 µM,reference: control,remaining activity,91% and 96%
CN1CC[C@@H](COc2cnc(C#N)cc2-c2ccn3nc(NC(=O)C4CC4)cc3c2)C1,SGK3,"enzyme activity, inhibitor",,1 µM,,inhibition,9%
COc1c(Cl)cccc1Nc1c(-c2ccncc2C#C[C@@]2(C)CCCN2C(=O)/C=C/CN(C)C)[nH]c2c1C(=O)NCC2,SGK3,"binding, competition with immobilised ligand",,3 µM,,remaining binding,100%
Nc1ncc2c(n1)-c1c([nH]c3ccc(C4=CCOCC4)cc13)CCC2,SGK3,"binding, competition with immobilised ligand",,1 µM,,remaining binding,100%
Cc1cccc(O[C@H]2CCC[C@@H](C(C)CNCc3ccncc3)C2)c1 (relative stereo),SGK3,"enzyme activity, inhibitor",,1 µM,,inhibition,-6%
CSc1nc(C=NOCc2ccc3nc(-c4ccccc4)c(Nc4ccc(C(=O)O)cc4)n3c2)ccc1C#N (mixture of isomers),TDP1,"enzyme activity, inhibitor",,"100 µM, unpurified compound",,inhibition,64.8%
COc1cc(Nc2nc(C)cc(-c3cnn4nc(OC)ccc34)n2)cc(C(F)(F)F)c1,SGK3,"binding, competition with immobilised ligand",,1 µM,,remaining binding,74%
O=C=[N][Ru-4]123([n]4c5ccc(O)cc5c5c6c(c7cc(F)c[n+]1c7c54)C(=O)NC6=O)[S+]1CC[S+]2CC[S+]3CC1 (stereo not shown),SGK3,enzyme activity,,"100 nM, human enzyme, with: 10 µM ATP",reference: untreated,remaining activity,92%
COc1c(OCCCN2CCOCC2)ccc2c1N=C(NC(=O)c1cnc(N)nc1)N1CCN=C21,SGK3,"kinase activity, inhibitor",,1 µM,reference: untreated control,remaining activity,82%
CN1CCN(Cc2ccc(-c3ccc(CO[C@H]4CCC[C@@H]4NC(=O)c4cc(-c5cnn(C)c5)cnc4N)cc3)cc2)CC1,SGK3,"enzyme activity, inhibitor",,0.1 µM,,inhibition,24%
NC(=O)[C@@H](O)C[C@H]1CCc2sc3ncnc(O[C@H]4CC[C@H](N5CCOCC5)CC4)c3c21,SGK3,"enzyme activity, inhibitor",,10 µM,,inhibition,1%
C=CC(=O)N1Cc2nc(-c3cc(-c4cc(Cl)cnc4Cl)c(F)cc3F)n(-c3ccncn3)c2C1,SGK3,"cell-free assay, inhibitor",,1 µM,,inhibition,4.5%
C=CC(=O)Nc1cccc(-c2cnc3[nH]cc(C(=O)NC(C)(C)C)c3n2)c1,SGK3,kinase activity,,0.1 µM,,inhibition,6% and 2%

# For quick reference, copied from above:
SMILES,target,assay,system,conditions,how to read,measurement,result
Cc1nc2c(F)cc(-c3nc(Nc4ccc(CNC(=O)CCCCCCC(=O)NO)cc4)ncc3F)cc2n1C(C)C,SGK3,"enzyme activity, inhibitor",,1 µM,,inhibition,26%
CC(C)=CC1OC(C)(C)C2C=C3C(=O)C(Cl)=CC(O)C3C3C(O)C4OC4C(=O)C132 (stereo not shown),SGK3,"cell-free assay, competition with immobilised ligand",,10 µM,,remaining binding,59%
Cc1ccc(-c2c(/C=C(\C#N)C(=O)NC(C)C)n(CCCO)c3ncnc(N)c23)cc1,SGK3,"cell-free assay, competition with immobilised ligand",,1 µM,,remaining binding,66%
